Experimental data pooled from the literature.
Protocols differ between the studies behind these lines. ± gives the spread as reported.

CCCC[C@H](NC(=O)CNC(=O)CNC(=O)c1ccc(NN)nc1)C(=O)N[C@H]1CC(=O)NCCCC[C@@H](C(N)=O)NC(=O)[C@H](Cc2c[nH]c3ccccc23)NC(=O)[C@H](CCCNC(=N)N)NC(=O)[C@@H](Cc2ccccc2)NC(=O)[C@H](Cc2c[nH]cn2)NC1=O [technetium-99m labelled]  tissue uptake (C57 mouse, B16/F1 melanoma-bearing, tumor; intravenous, 0.5 h): 13.8 ± 3.49 %ID/g
N=C(N)NCCC[C@@H]1NC(=O)[C@H](CCCCNC(=O)CCOCCOCCOCCOCCNC(=O)CC[C@H](NC(=O)CCOCCOCCOCCOCCNC(=O)CC[C@H](NC(=O)CN2CCN(CC(=O)O)CCN(CC(=O)O)CCN(CC(=O)O)CC2)C(=O)NCCOCCOCCOCCOCCC(=O)N[C@@H](CCC(=O)NCCOCCOCCOCCOCCC(=O)NCCCC[C@@H]2NC(=O)[C@@H](Cc3ccccc3)NC(=O)[C@H](CC(=O)O)NC(=O)CNC(=O)[C@H](CCCNC(=N)N)NC2=O)C(=O)NCCOCCOCCOCCOCCC(=O)NCCCC[C@@H]2NC(=O)[C@@H](Cc3ccccc3)NC(=O)[C@H](CC(=O)O)NC(=O)CNC(=O)[C@H](CCCNC(=N)N)NC2=O)C(=O)NCCOCCOCCOCCOCCC(=O)NCCCC[C@@H]2NC(=O)[C@@H](Cc3ccccc3)NC(=O)[C@H](CC(=O)O)NC(=O)CNC(=O)[C@H](CCCNC(=N)N)NC2=O)NC(=O)[C@@H](Cc2ccccc2)NC(=O)[C@H](CC(=O)O)NC(=O)CNC1=O [indium-111 labelled]  tissue uptake (athymic nude mouse U-87 MG xenograft, liver; intravenous, 1 h, with: RGD2 co-injected 14 mg/kg): 0.7 %ID/g
CSCC[C@H](NC(=O)[C@H](CC(C)C)NC(=O)[C@H](Cc1c[nH]cn1)NC(=O)CNC(=O)[C@@H](NC(=O)[C@H](C)NC(=O)[C@H](Cc1c[nH]c2ccccc12)NC(=O)[C@H](CCC(N)=O)NC(=O)[C@H](CC(N)=O)NC(=O)CNC(=O)[C@H](Cc1ccc(O)cc1)NC(=O)[C@H](CCCNC(=N)N)NC(=O)[C@H](CCC(N)=O)NC(=O)[C@@H]1CCCN1C(=O)CN1CCN(CC(=O)O)CCN(CC(=O)O)CCN(CC(=O)O)CC1)C(C)C)C(N)=O [indium-111 labelled]  tissue uptake (Swiss nu/nu mouse, male, PC-3 tumour xenograft, pancreas; intravenous, 10 pmol, 1 h): 9 ± 2.5 %ID/g
CCCC[C@H](NC(=O)CCCCCCCNC(=O)c1ccc(NN)nc1)C(=O)N[C@H]1CC(=O)NCCCC[C@@H](C(N)=O)NC(=O)[C@H](Cc2c[nH]c3ccccc23)NC(=O)[C@H](CCCNC(=N)N)NC(=O)[C@@H](Cc2ccccc2)NC(=O)[C@H](Cc2c[nH]cn2)NC1=O [technetium-99m labelled]  tissue uptake (C57 mouse, B16/F1 melanoma, spleen; 2 h, with: NDP-MSH 10 µg (6.07 nmol) co-injected): 0.17 ± 0.11 %ID/g
CCCC[C@H](NC(=O)[C@H](Cc1cccs1)NC(=O)[C@H](Cc1c[nH]cn1)NC(=O)CCNC(=O)[C@@H](NC(=O)[C@H](C)NC(=O)[C@H](Cc1c[nH]c2ccccc12)NC(=O)[C@H](CCC(N)=O)NC(=O)[C@H](Cc1cccs1)NC(=O)CN1CCC(NC(=O)CN(CCN(CCN(CC(=O)O)CC(=O)O)CC(=O)O)CC(=O)O)CC1)C(C)C)C(N)=O [indium-111 labelled]  tissue uptake (Swiss nu/nu mouse, male, PC-3 tumour xenograft, pancreas; intravenous, 10 pmol, 4 h): 11.4 ± 2.5 %ID/g
N=C(N)NCCC[C@@H]1NC(=O)[C@H](CCCCNC(=O)CNC(=O)CNC(=O)CNC(=O)CC[C@H](NC(=O)CNC(=O)CNC(=O)CNC(=O)c2ccc(NN=Cc3ccccc3S(=O)(=O)O)nc2)C(=O)NCC(=O)NCC(=O)NCC(=O)NCCCC[C@@H]2NC(=O)[C@@H](Cc3ccccc3)NC(=O)[C@H](CC(=O)O)NC(=O)CNC(=O)[C@H](CCCNC(=N)N)NC2=O)NC(=O)[C@@H](Cc2ccccc2)NC(=O)[C@H](CC(=O)O)NC(=O)CNC1=O [technetium-99m labelled]  tissue uptake (athymic nu/nu mouse, female, MDA-MB-435 xenograft, tumour; intravenous, 2 µCi, 30 min): 8.34 ± 0.39 %ID/g
N=C(N)NCCC[C@@H]1NC(=O)[C@H](CC(=O)NC23CNCCNCC(N)(CNCCNC2)CNCCNC3)NC(=O)[C@@H](Cc2ccccc2)NC(=O)[C@H](CC(=O)O)NC(=O)CNC1=O [copper-64 labelled]  tissue uptake (Nu/Nu mouse, male, tumour-bearing, lung; intravenous, 10 µCi, 2 h): 1.05 ± 0.13 %ID/g
CCCC[C@H](NC(=O)CNC(=O)[C@H](CO)NC(=O)CNC(=O)c1ccc(NN)nc1)C(=O)N[C@H]1CC(=O)NCCCC[C@@H](C(N)=O)NC(=O)[C@H](Cc2c[nH]c3ccccc23)NC(=O)[C@H](CCCNC(=N)N)NC(=O)[C@@H](Cc2ccccc2)NC(=O)[C@H](Cc2c[nH]cn2)NC1=O [technetium-99m labelled]  tissue uptake (C57 mouse, B16/F1 melanoma, intestines; intravenous, 0.037 MBq, 2 h): 0.72 ± 0.27 %ID
CSCC[C@H](NC(=O)[C@H](CC(C)C)NC(=O)[C@H](Cc1c[nH]cn1)NC(=O)CNC(=O)[C@@H](NC(=O)[C@H](C)NC(=O)[C@H](Cc1c[nH]c2ccccc12)NC(=O)[C@H](CCC(N)=O)NC(=O)CCCCCNC(=O)CNC(=O)CNC(=O)CNC(=O)CSC(C)=O)C(C)C)C(N)=O [technetium-99m labelled]  tissue uptake (Swiss mouse, liver; intravenous, 18.5 MBq, 90 min): 1.58 ± 0.45 %ID/g
N=C(N)NCCC[C@@H]1NC(=O)[C@H](CCCCNC(=O)CCOCCOCCOCCOCCNC(=O)CC[C@H](NC(=O)CCOCCOCCOCCOCCNC(=O)[C@H](CCCCNC(=O)c2ccc(NN)nc2)NC(=O)c2ccc(NN)nc2)C(=O)NCCOCCOCCOCCOCCC(=O)NCCCC[C@@H]2NC(=O)[C@@H](Cc3ccccc3)NC(=O)[C@H](CC(=O)O)NC(=O)CNC(=O)[C@H](CCCNC(=N)N)NC2=O)NC(=O)[C@@H](Cc2ccccc2)NC(=O)[C@H](CC(=O)O)NC(=O)CNC1=O [technetium-99m labelled]  tissue uptake (athymic nude mouse, female, U-87 MG xenograft, intestine; intravenous, 0.1 MBq, 1 h): 10.3 ± 5.01 %ID/g
N=C(N)NCCC[C@@H]1NC(=O)[C@H](CCCCNC(=O)CNC(=O)CNC(=O)CNC(=O)c2ccc(NN=Cc3ccccc3S(=O)(=O)O)nc2)NC(=O)[C@@H](Cc2ccccc2)NC(=O)[C@H](CC(=O)O)NC(=O)CNC1=O [technetium-99m labelled]  tissue uptake (athymic nu/nu mouse, female, U-87 MG glioma xenograft, kidney; intravenous, 120 min): 3.75 ± 0.48 %ID/g
N=C(N)NCCC[C@@H]1NC(=O)[C@H](CCCCNC(=O)CCC(NC(=S)Nc2ccc(CC3CN(CC(=O)O)CCN(CC(=O)O)CCN(CC(=O)O)CCN3CC(=O)O)cc2)C(=O)NCCCC[C@@H]2NC(=O)[C@@H](Cc3ccc(O)cc3)NC(=O)[C@H](CC(=O)O)NC(=O)CNC(=O)[C@H](CCCNC(=N)N)NC2=O)NC(=O)[C@@H](Cc2ccc(O)cc2)NC(=O)[C@H](CC(=O)O)NC(=O)CNC1=O (stereo partly drawn) [scandium-44 labelled]  tissue uptake (PET imaging; female athymic nude mouse, U-87 MG xenograft tumour; intravenous, 5.5 to 7.4 MBq, 2 h): 3.07 ± 1.17 %ID/g

Some of these lines once more:
CSCC[C@H](NC(=O)[C@H](CC(C)C)NC(=O)[C@H](Cc1c[nH]cn1)NC(=O)CNC(=O)[C@@H](NC(=O)[C@H](C)NC(=O)[C@H](Cc1c[nH]c2ccccc12)NC(=O)[C@H](CCC(N)=O)NC(=O)CCCCCNC(=O)CNC(=O)CNC(=O)CNC(=O)CSC(C)=O)C(C)C)C(N)=O [technetium-99m labelled]  tissue uptake (Swiss mouse, liver; intravenous, 18.5 MBq, 90 min): 1.58 ± 0.45 %ID/g
N=C(N)NCCC[C@@H]1NC(=O)[C@H](CCCCNC(=O)CCOCCOCCOCCOCCNC(=O)CC[C@H](NC(=O)CCOCCOCCOCCOCCNC(=O)[C@H](CCCCNC(=O)c2ccc(NN)nc2)NC(=O)c2ccc(NN)nc2)C(=O)NCCOCCOCCOCCOCCC(=O)NCCCC[C@@H]2NC(=O)[C@@H](Cc3ccccc3)NC(=O)[C@H](CC(=O)O)NC(=O)CNC(=O)[C@H](CCCNC(=N)N)NC2=O)NC(=O)[C@@H](Cc2ccccc2)NC(=O)[C@H](CC(=O)O)NC(=O)CNC1=O [technetium-99m labelled]  tissue uptake (athymic nude mouse, female, U-87 MG xenograft, intestine; intravenous, 0.1 MBq, 1 h): 10.3 ± 5.01 %ID/g
